# Experimental data of several laboratories.
# Several values in a cell are separate wells, animals, samples, runs or records.
# UniProt P29371, sequence (whole entry, looked up): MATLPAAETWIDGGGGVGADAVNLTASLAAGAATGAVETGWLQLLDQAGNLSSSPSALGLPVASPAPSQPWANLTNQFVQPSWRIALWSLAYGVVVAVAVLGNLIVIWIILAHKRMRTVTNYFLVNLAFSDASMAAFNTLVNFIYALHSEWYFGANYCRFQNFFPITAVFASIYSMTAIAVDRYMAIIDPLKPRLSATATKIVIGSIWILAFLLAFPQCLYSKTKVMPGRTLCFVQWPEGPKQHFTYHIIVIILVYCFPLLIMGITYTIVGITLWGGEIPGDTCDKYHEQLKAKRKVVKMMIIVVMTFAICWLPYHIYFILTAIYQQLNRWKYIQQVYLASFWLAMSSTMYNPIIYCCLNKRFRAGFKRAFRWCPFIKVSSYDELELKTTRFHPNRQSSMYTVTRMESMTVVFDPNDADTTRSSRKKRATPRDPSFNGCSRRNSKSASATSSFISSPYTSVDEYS
# UniProt P50750, sequence (whole entry, looked up): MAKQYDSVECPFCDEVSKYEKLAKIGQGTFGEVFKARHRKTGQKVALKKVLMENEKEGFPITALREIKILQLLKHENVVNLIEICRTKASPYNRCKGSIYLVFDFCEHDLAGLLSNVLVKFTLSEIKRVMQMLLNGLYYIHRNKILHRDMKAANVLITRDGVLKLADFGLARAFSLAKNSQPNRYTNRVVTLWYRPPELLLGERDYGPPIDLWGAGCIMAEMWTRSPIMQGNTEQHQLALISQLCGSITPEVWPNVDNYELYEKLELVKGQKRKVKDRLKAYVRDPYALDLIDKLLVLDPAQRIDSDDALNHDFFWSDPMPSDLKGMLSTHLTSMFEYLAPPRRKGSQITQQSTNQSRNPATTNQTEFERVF
Compound,tested on,assay,test system,setting,scale,quantity,result
Clc1ccccc1C1(c2ccnc(-c3ccccc3)n2)CCNCC1,Vero-E6,CellTiter-Glo ATP,,"72 h, retest 8-point duplicates","baseline: DMSO 0%, hyamine -100%, more negative, more toxic",maximum response,-10.2%
COc1ccc(Nc2nn3c(-c4ccccc4)ccnc3c2C(=O)Nc2ccc(Cl)cc2)cc1,WI-38,MTT,serum-free medium,"250.00 µg/mL, 48 h",,viability,75.8%
Nc1ncnc2c1ncn2[C@@H]1O[C@@H]2COP(=O)(O)O[C@H]3[C@@H](O)[C@H](n4cnc5c(=O)[nH]cnc54)O[C@@H]3COP(=O)(O)O[C@H]2[C@H]1O,HFF-1,,,0.1 µg/mL,,viability,89%
COc1ccc(Nc2nn3c(-c4ccccc4)ccnc3c2C(=O)Nc2ccccc2)cc1,WI-38,MTT,serum-free medium,"500.00 µg/mL, 48 h",,viability,39.5%
CC(C)C[C@H](NC(=O)[C@H](C)NC(=O)[C@@H](NC(=O)[C@H](CCCNC(=N)N)NC(=O)[C@H](CC(C)C)NC(=O)[C@H](Cc1c[nH]c2ccccc12)NC(=O)[C@@H]1CCCN1C(=O)[C@@H](N)CCCCN)C(C)C)C(=O)N[C@@H](CS)C(=O)N1CCC[C@H]1C(=O)NCC(=O)O,A549,WST-1,,"32 µM, 24 h",,viability,91% and 85.1% and 96.1%
C[C@H]1CN(c2n[nH]c3nc(N[C@H]4CC[C@H](NS(=O)(=O)CCC(F)(F)F)CC4)ncc23)CCO1,"CDK9 (Homo sapiens, UniProt P50750)",Kinobeads competition,"HEK293, K562, placenta lysate","0.032 µM, unit not given",baseline: vehicle,remaining binding,1.02
CC(C)C[C@@H](N)C(=O)N[C@H](Cc1ccccc1)C(=O)N[C@H](Cc1ccccc1)C(=O)N[C@H](C)C(N)=O,NGF-differentiated PC-12 neurons,,,"80 µM, 24 h",baseline: untreated,viability,85.6%
CN(C)c1ccc(C(Nc2nc3c(-c4ccc([N+](=O)[O-])cc4)nn(-c4ccccc4)c3s2)P(=O)(Oc2ccccc2)Oc2ccccc2)cc1 (stereo not drawn),BNL mouse liver cells,SRB,,"100 µM, 10% fetal bovine serum",,viability,73%
CC(C)C[C@@H](NC(=O)[C@H](N)CCCCN)C(=O)N[C@H](CC(C)C)C(=O)N[C@H](Cc1ccccc1)C(=O)N[C@H](Cc1ccccc1)C(=O)N[C@H](C)C(=O)N[C@H](CCC(=O)O)C(N)=O,NGF-differentiated PC-12 neurons,,,"40 µM, 24 h",baseline: untreated,viability,99.6%
Cn1cc2cc(C(F)(F)c3nnc4ccc(-c5cnn(C6CC6)c5)nn34)c(F)cc2n1,MKN-45,CCK-8,,"0.0005 µM, 72 h",baseline: untreated,viability,99.2% and 98.9% and 99.1%
COc1cc(Nc2ncc(F)c(Nc3ccc4c(n3)NC(=O)C(C)(C)O4)n2)cc(OC)c1OC,"TACR3 (Homo sapiens, UniProt P29371)",,,,,IC50,> 10 µM
COc1cc2c(Oc3ccc4[nH]c(C)cc4c3F)ccnc2cc1OCC1(N)CC1,,,paediatric recurrent refractory sarcoma,8 mg,,grade 1 or 2 Nausea,0%
Cc1ccc2c(CNCC3(N4CCCC4)COC3)c[nH]c2c1,HEK,,,"30 µM, 48 h, 10% FBS",baseline: DMSO,viability,40.4%
CC(C)C[C@@H](N)C(=O)N[C@H](Cc1ccccc1)C(=O)N[C@H](Cc1ccccc1)C(=O)N[C@H](C)C(=O)N[C@H](CCC(=O)O)C(N)=O,NGF-differentiated PC-12 neurons,,,"80 µM, 24 h",baseline: untreated,viability,56.8%
Cc1ccc(C(C)Nc2nc(N3CCNCC3)nc3ccccc23)cc1 (stereo not drawn),Vero-E6,CellTiter-Glo ATP,,"72 h, retest 8-point duplicates","baseline: DMSO 0%, hyamine -100%, more negative, more toxic",maximum response,-11.1%
CC(C)C[C@@H](NC(=O)[C@H](N)CCCCN)C(=O)N[C@H](CC(C)C)C(=O)N[C@H](Cc1ccccc1)C(=O)N[C@H](Cc1ccccc1)C(N)=O,NGF-differentiated PC-12 neurons,,,"40 µM, 24 h",baseline: untreated,viability,99.6%
CC[C@H](C)[C@H](NC(=O)[C@H](Cc1ccccc1)NC(=O)[C@H](CCC(=O)O)NC(=O)[C@H](CCCNC(=N)N)NC(=O)[C@H](C)NC(=O)[C@H](C)NC(=O)[C@H](CCC(N)=O)NC(=O)[C@H](CCC(=O)O)NC(=O)[C@H](CCC(=O)O)NC(=O)[C@H](CC(C)C)NC(=O)[C@H](Cc1ccc(O)cc1)NC(=O)[C@H](CO)NC(=O)[C@H](CO)NC(=O)[C@@H](NC(=O)[C@H](CC(=O)O)NC(=O)[C@H](CO)NC(=O)[C@@H](NC(=O)[C@H](Cc1ccccc1)NC(=O)[C@@H](NC(=O)CNC(=O)[C@H](CCC(=O)O)NC(=O)[C@H](C)NC(=O)CCc1c[nH]cn1)[C@@H](C)O)[C@@H](C)O)C(C)C)C(=O)N[C@@H](C)C(=O)N[C@@H](Cc1c[nH]c2ccccc12)C(=O)N[C@@H](CC(C)C)C(=O)N[C@H](C(=O)N[C@@H](CCCNC(=N)N)C(=O)NCC(=O)N[C@@H](CCCNC(=N)N)C(=O)N[C@@H](CCCCNC(=O)COCCOCCNC(=O)COCCOCCNC(=O)CC[C@H](NC(=O)CCCCCCCCCCCCCCCCC(=O)O)C(=O)O)C(=O)NCC(=O)NCC(=O)N[C@@H](CO)C(=O)N[C@@H](CCCCNc1c(NCCCCCN(O)C(=O)CCC(=O)NCCCCCN(O)C(=O)CCC(=O)NCCCCCN(O)C(C)=O)c(=O)c1=O)C(=O)O)C(C)C [zirconium-89 labelled],,,"rat, duodenum content","intravenous, 3 nmol/kg, 72 h",,tissue uptake,0.03 %ID/g
O=[N+]([O-])c1ccc(-c2nn(-c3ccccc3)c3sc(NC(c4ccccc4O)P(=O)(Oc4ccccc4)Oc4ccccc4)nc23)cc1 (stereo not drawn),BNL mouse liver cells,SRB,,"0.01 µM, 10% fetal bovine serum",,viability,102%

# Some of these lines once more:
Compound,tested on,assay,test system,setting,scale,quantity,result
CC(C)C[C@@H](N)C(=O)N[C@H](Cc1ccccc1)C(=O)N[C@H](Cc1ccccc1)C(=O)N[C@H](C)C(=O)N[C@H](CCC(=O)O)C(N)=O,NGF-differentiated PC-12 neurons,,,"80 µM, 24 h",baseline: untreated,viability,56.8%
Cc1ccc(C(C)Nc2nc(N3CCNCC3)nc3ccccc23)cc1 (stereo not drawn),Vero-E6,CellTiter-Glo ATP,,"72 h, retest 8-point duplicates","baseline: DMSO 0%, hyamine -100%, more negative, more toxic",maximum response,-11.1%
CC(C)C[C@@H](NC(=O)[C@H](N)CCCCN)C(=O)N[C@H](CC(C)C)C(=O)N[C@H](Cc1ccccc1)C(=O)N[C@H](Cc1ccccc1)C(N)=O,NGF-differentiated PC-12 neurons,,,"40 µM, 24 h",baseline: untreated,viability,99.6%
